Measured values from different studies.
Protocols differ between the studies behind these lines. Numbers after ± are the reported error.
UniProt Q9UNQ0, sequence (whole entry, looked up): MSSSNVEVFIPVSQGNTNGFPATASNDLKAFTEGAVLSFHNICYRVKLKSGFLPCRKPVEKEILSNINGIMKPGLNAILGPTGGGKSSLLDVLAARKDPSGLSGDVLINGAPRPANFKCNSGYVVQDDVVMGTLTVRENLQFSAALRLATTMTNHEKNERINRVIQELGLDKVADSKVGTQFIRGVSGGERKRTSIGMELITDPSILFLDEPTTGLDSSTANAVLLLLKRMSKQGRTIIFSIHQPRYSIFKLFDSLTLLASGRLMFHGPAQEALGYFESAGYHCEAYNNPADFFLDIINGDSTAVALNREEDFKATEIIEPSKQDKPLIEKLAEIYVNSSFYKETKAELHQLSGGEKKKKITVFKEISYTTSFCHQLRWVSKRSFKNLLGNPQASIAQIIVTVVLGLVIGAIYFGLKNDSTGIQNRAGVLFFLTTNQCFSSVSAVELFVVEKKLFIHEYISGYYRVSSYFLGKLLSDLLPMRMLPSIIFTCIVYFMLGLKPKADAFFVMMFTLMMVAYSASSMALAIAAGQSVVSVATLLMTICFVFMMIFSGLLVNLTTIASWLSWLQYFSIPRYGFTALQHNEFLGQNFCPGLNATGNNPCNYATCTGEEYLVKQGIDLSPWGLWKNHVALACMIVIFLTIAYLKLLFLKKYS

For `Fc1cccc(Cn2cc(Cn3cc4c5cc(Br)ccc5nc-4c4cc(F)ccc43)nn2)c1`, the selectivity index was 8 (Giardia duodenalis; reference: Caco-2 CC50 over Giardia IC50).
For `NS(=O)(=O)c1ccc(NC(=O)NN[C@@H]2O[C@H](CO)[C@@H](O)[C@H](O)[C@H]2O)cc1`, the hemolysis was 0% (rabbit erythrocytes; 16 µg/mL, 3 h; reference: complete lysis).
`[64Cu+2].c1cnc(CNCc2ccc(CN3CCCN4CCNCCCN(CC4)CC3)cc2)nc1` gave a tissue uptake of 3.08 ± 0.47 %ID/g (CXCR4; NOD/SCID mouse, U87 and U87-stb-CXCR4 xenografts, blood; iv, 30 min, ex vivo).
For `COc1ccc(-n2cc(Cn3cc4c5cc(Br)ccc5nc-4c4cc(F)ccc43)nn2)cc1`, the selectivity index was 11 (Giardia duodenalis; reference: Caco-2 CC50 over Giardia IC50).
`c1ccc(CN2CCOCCOCCN(CCCCCCCCCCCCCCN3CCOCCOCCN(CCCCCCCCCCCCCCN4CCOCCOCCN(Cc5ccccc5)CCOCCOCC4)CCOCCOCC3)CCOCCOCC2)cc1` — result for “concentration for membrane permeabilisation”: at least 4 µM (Escherichia coli; propidium iodide uptake; tetracycline-resistant).
`O=C(O)CCC(NP(=O)(O)OCCC[C@@H](NC(=O)CC[C@H](NC(=O)CCCCCNC(=O)c1ccc([18F])cc1)C(=O)O)C(=O)O)C(=O)O` (some centres unmarked) has a tracer uptake of 0.401 %ID/g (CWR22Rv1 tumour model; host not given, spleen; 4 h, tumour-bearing).
With `[64Cu+2].c1ccc(CNCc2ccc(CN3CCCN4CCNCCCN(CC4)CC3)cc2)nc1` the tissue uptake was 0.36 ± 0.07 %ID/g (CXCR4; NOD/SCID mouse, U87 and U87-stb-CXCR4 xenografts, muscle; iv, 120 min, ex vivo).
`CC(=O)N[C@H](C(=O)N[C@H](C(=O)N[C@@H](CCCNC(=N)N)C(=O)N1Cc2ccccc2C[C@H]1C(=O)N[C@@H](Cc1ccccc1)C(N)=O)C1CCCCC1)C(C)C` has a cytokine level of under 0.2 pg/mL (human PBMC; Bio-Plex multiplex, refers to: IL-5; 500 µg/mL, 24 h).
For `Cn1c(=O)oc2ccc(-c3ccc(CC(C#N)NC(=O)C4CNCCCO4)c(F)c3)cc21` (centres unmarked), “treatment-emergent adverse event incidence” read 7.4% (refers to: lymphadenopathy; human volunteers; oral).
For `Fc1ccc(Cn2cc(Cn3cc4c5cc(Br)ccc5nc-4c4cc(F)ccc43)nn2)cc1`, the selectivity index was 6 (Giardia duodenalis; reference: Caco-2 CC50 over Giardia IC50).
For `O=C(O)C1OC(Oc2ccc3oc(-c4ccccc4)cc(=O)c3c2)C(O)C(O)C1O` (centres unmarked), the log CLint was 0.75 (Broad substrate specificity ATP-binding cassette transporter ABCG2 (ABCG2, Homo sapiens, UniProt Q9UNQ0); substrate, glucuronide efflux; HeLa-UGT1A9 cells).
The therapeutic index of `CC1(C)C2CC[C@]3(C)C(C(=O)C=C4[C@H]5C[C@@](C)(C(=O)O)CC[C@]5(C)CC[C@]43C)[C@@]2(C)CC[C@@H]1O[C@@H]1O[C@H](C(=O)O)[C@@H](O)[C@H](O)[C@H]1O[C@@H]1O[C@H](C(=O)O)[C@@H](O)[C@H](O)[C@H]1O` (single isomer, unassigned) is reported as 160 (Epstein-Barr virus; superinfected Raji cells; reference: CC50 over EC50).
With `COC(=O)COc1ccc(NC(=O)C2(c3ccc(Cl)c(Cl)c3)CC2)c(C)c1` the cytotoxicity was -1% (U-937; LDH release; 12.5 µM, 4 h; reference: Triton X-100).
With `Fc1ccc2c(c1)c1nc3ccc(Br)cc3c-1cn2Cc1cn(CCCc2ccccc2)nn1` the selectivity index was 21.6 (Giardia duodenalis; reference: Caco-2 CC50 over Giardia IC50).

Repeated from above:
With `Fc1ccc2c(c1)c1nc3ccc(Br)cc3c-1cn2Cc1cn(CCCc2ccccc2)nn1` the selectivity index was 21.6 (Giardia duodenalis; reference: Caco-2 CC50 over Giardia IC50).
